# Results pooled from the literature.
# Numbered parts are unrelated; each lists some results of a single study.

# Series 1
# Target: Sal-like protein 4, full length isoform B (SALL4, Homo sapiens, UniProt Q9UJQ4-2, residues 1-616)
# Method: universal PBM
# Molecule type: double-stranded DNA, one strand shown
# Matrix: in vitro
# Concentration: not given
# Notes: 8-mer, flanks averaged, mean of replicates
# Direction: higher = stronger binding
Oligonucleotide,E-score
GAAAGAAA,0.16
AACAGGGT,-0.0892
AAAGACGG,-0.0901
GCCACTCC,-0.134
AAGGTACC,-0.206
AATGATAC,0.263
CCGTGCAG,-0.144
CGCGTCTC,-0.154
AGAATCCA,0.0125
TACATTGA,0.243
GCTATGAA,0.15
CGGTACCC,-0.124
CAGTGATG,0.0768
ACAAATGG,0.141
AAGGAAGA,0.00198
AGGGACCA,-0.247
ATCGCCGA,-0.102
AGACCGCA,-0.184
CTGGTTGC,-0.207

# Series 2
# Target: RNA binding protein fox-1 homolog 2, RRM domain, GST-SBP tag (RBFOX2, Homo sapiens, UniProt O43251-10, residues 100-194)
# Method: RNA Bind-n-Seq
# Molecule type: RNA
# Matrix: in vitro
# Concentration: 365 nM
# Notes: natural RNA segment, single round, ends assumed
# Reference: no-protein control
# Direction: higher = stronger binding
# Constant ends, left off below: GGGAGUUCUACAGUCCGACGAUC … UGGAAUUCUCGGGUGCCAA
# Construct (chain): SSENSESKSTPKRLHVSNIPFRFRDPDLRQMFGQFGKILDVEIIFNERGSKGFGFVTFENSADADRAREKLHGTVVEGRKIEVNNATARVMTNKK
Oligonucleotide,RBNS enrichment (R)
GAUUAGCUGUAAACAGUUUUCGAUAUUUUGGAUAUGGCCAAAAGUCUUUUGAAUCUAAAAUCUUGGAAGAAACCAAAUUUUUCAAUGAUGCUAUUGAAACAUACAAAGGU,0.345
AAAGAGAAUGUUCUCUUACAUAUGUUAGGAAAAUAGGCACACUUUCAAAGAGAGGUAUAGGGGCUUUUUACUGCCUUCGAAAUCACUUUUAAUAAAAGUUGUAUGAUAAA,0.307
UUUUCCUCCCUCUUUUCCCCUUGCCCCCUCUGCAGCCGGAGGAGGAGAUGUUGAGGGGAGGAGGCCAGCCAGUGUGACCGGCGCUAGGAAAUGACCCGAGAACCCCGUUG,0.41
CAACAAGAUAAUUAAAUAUCUUGGUGUCUUGUUUCUAUUGUGUGGCUUUUUAAAAAUGACAAAUAUGUACUGUGUUGUGAUAAAAAGUAUUUUAUUUGUUUAAUGAUAUG,0.928
GGACACUAGGAGACUGGUUAGGACAAAAAGACCUUCUCCCUAGCCCUUCUACCCCACCUGACCUCUGCAAGAGGGGGCAUUGAUACAUCAUCGGGAAAAAACUUUGCUCC,0.466
AAGUCUAGUAAGAAUUAAUUACACAGAAGCCUCCUUUCAUUUCUAUGGGCCAAACAAAGGCCAUGGAUAACCCUACCCGCUUUAUGUCAUUACCCAUUGGGAAACACAAU,0.436
UAAAACCAGUUUCAUAAUUGGUUGUAUAUGUAGACUUGGAGUUUUAUCUUUUUACUUGUUGCCAUGGAACUGAAACCAUUAGAGGUUUUUGUCUUGGCUUGGGGUUUUUG,0.458
AAGAACUGAUUGUGACUUGUAGUUCUUCUCUAGAGGAUGCUGCUAGAACGUGGUUUUGCUUUGCAUUUUGUAGUUCUUCCCGUCAGUGCUGUGUGUAGUCCUGCUUCUUC,1.29

# Series 3
# Target: Interferon regulatory factor 5, full length, phosphomimetic (IRF5, Homo sapiens, UniProt Q13568-2, residues 1-514, S451D/S453D/S456D/S462D)
# Method: protein-binding microarray
# Molecule type: double-stranded DNA, one strand shown
# Matrix: in vitro
# Concentration: 940 nM top
# Notes: 60-bp whole probe
# With: salmon DNA 0.4 mg/ml
# Reference: random background probes
# Direction: higher = stronger binding
# Constant ends, left off below: GCCTAGCAC … GTCTTGATTCGCTTGACGCTGCTG
Oligonucleotide,fitted relative affinity
GCATTTTTCTAACCCATTGAGTGCTAG,0.985 z-score
TTAGATATCAGACTGGATTAGTGCTAG,-0.353 z-score
TTAGATCTCAGTCTCGAGTAGTGCTAG,1.38 z-score
GACGATTTCGGGTTTCCAGACGTGCTA,0.804 z-score
GTAGGTATCGGGACTGGGTTAGTGCTA,4.19 z-score
TTGTGTTTGTCCCTATTTAAGTGCTAG,0.929 z-score
TTAGGTTCCGGTTTCGGTTCGTGCTAG,8.86 z-score
GAAGCCCTCCCTGTGGGGGGGTGCTAG,1.57 z-score
TCAGGTATCGGTCTCGGTTAGTGCTAG,8.77 z-score
TTAGGTATCGGCTATCGGTTAGTGCTA,5.41 z-score
ATAGGTTTCGGTTCCGGTTAGTGCTAG,14.3 z-score
TTAGGTATCGTTCTCGGTTAGTGCTAG,6.26 z-score
GACGGTTTCGGAGTGGGGACGTGCTAG,5.7 z-score
AGTGTCATGTTTCTATGGGCGTGCTAG,1.04 z-score

# Series 4
# Target: Ras GTPase-activating protein-binding protein 1, C-terminal RGG region (G3BP1, Homo sapiens, UniProt Q13283)
# Chain of UniProt Q13283 (whole entry, looked up): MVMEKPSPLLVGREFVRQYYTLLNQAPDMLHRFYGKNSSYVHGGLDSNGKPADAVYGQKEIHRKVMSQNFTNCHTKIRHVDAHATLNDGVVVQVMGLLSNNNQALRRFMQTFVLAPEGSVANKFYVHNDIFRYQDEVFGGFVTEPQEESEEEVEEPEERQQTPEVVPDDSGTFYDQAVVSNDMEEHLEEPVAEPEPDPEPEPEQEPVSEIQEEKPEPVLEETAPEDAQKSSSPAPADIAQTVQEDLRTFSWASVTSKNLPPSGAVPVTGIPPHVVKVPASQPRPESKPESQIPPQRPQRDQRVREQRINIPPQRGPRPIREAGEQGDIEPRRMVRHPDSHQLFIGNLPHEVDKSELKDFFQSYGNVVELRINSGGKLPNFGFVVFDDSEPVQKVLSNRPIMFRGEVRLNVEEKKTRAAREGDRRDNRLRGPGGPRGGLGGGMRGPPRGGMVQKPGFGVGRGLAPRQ
# Method: RNA Bind-n-Seq
# Molecule type: RNA
# Matrix: in vitro
# Concentration: 1 µM
# Notes: whole 134-nt RNA, ends assumed
# With: 150 mM KCl
# Reference: input library
# Direction: higher = stronger binding
# Constant ends, left off below: GGGAGUUCUACAGUCCGACGAUC … UGGAAUUCUCGGGUGUCAAGG
Oligonucleotide,log2 enrichment
UCCUGUGCUACACAUCGUAUGUACCGAAUCAAACCCAAAUUUUUUUAAAUUUUUUUAAAAAAGUAUUAUGUUACGCCGUUCGGAUCUGCA,-0.864
CACAGACAACACGCACCCACACAGACACAGAGGGAAGGGGUUGGGAUGGGGACAGGGUGCACAGCAGGGCGGGGUAGGACCCCAGGCCCU,-0.946
GCAGGAAGUAAAAACAAAUGGAAAUGCUUCGGAUAGUGGCAGGGGAAAGGGUUGCUAAGGAAAGGGUGGGAUGGGAGUGGGUAAAGAGUU,1.32
AAGUCCUGUGCUACACAUCGUAUGUACCGAAUCGGCCCCGGCCCCGGGGCCCCGGGGAAAGUAUUAUGUUACGCCGUUCGGAUCUGCACU,-2.11
AGUCCUGUGCUACACAUCGUAUGUACCGAAUCGGGAGGGUUUUUGGGUUUUUUUGGGAAAGUAUUAUGUUACGCCGUUCGGAUCUGCACU,-0.427
UGGCCCAGGUGGCAUGCGGGGAGGAAGAGGUGGCCUCAUGGAUCGUGGUGGUCCCGGUGGAAUGUUCAGAGGUGGCCGUGGUGGAGACAG,1.91
GCAGGAAGUAAAAACAAAUGGAAAUGCUUCGGAUAGUGGCAGGGGUGGGGGUUGAAAAGGAAAGGGUGGGAUGGGAGUGGGUAAAGAGUU,1.79
UUGACUAUAUUGUGGAGUAUGACUAUGAUGCUGUACAUGAUGAUGAAUUAACUAUUCGAGUUGGAGAAAUCAUCAGGAAUGUGAAAAAGC,-2.16
GUCCUGUGCUACACAUCGUAUGUACCGAAUCGGGAGGGAAAAAAAGGGAAAAAAAGGGAAAGUAUUAUGUUACGCCGUUCGGAUCUGCAC,-0.23

# Series 5
# Target: PABPC1L2, full length, GST fusion (mouse, UniProt A0ABA7IW68)
# Method: RNAcompete
# Molecule type: RNA
# Matrix: in vitro
# Concentration: 20 nM
# Notes: 7-mer, probes averaged, single round
# Reference: mean of 7-mers
# Direction: higher = stronger binding
# Construct (chain): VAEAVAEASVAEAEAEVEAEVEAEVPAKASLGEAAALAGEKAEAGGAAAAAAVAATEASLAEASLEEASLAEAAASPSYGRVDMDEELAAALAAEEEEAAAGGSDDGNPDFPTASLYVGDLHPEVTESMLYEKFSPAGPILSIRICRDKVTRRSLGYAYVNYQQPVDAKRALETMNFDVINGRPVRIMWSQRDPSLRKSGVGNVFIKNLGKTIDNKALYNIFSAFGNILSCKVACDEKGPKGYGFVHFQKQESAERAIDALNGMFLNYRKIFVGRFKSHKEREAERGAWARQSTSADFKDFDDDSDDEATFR
Oligonucleotide,7-mer Z-score
AGGUGAA,0.171
AGGACUG,0.144
UUCUGGC,-0.358
CUCGAUG,-0.144
ACCACGU,-0.0881
UAAGGAA,0.0913
AAUCCGC,-0.199
GAGACGC,0.000733
UAACAAU,0.0515
CCUACCU,-0.4
UCCAAGU,-0.177
GGUCUGU,-0.24
GAAGGCU,0.0877
CGAAACA,0.843
AACGUAC,0.0261
GUGACUC,-0.291
CCAAGAU,-0.0428
CCCCGUC,-0.494
GAAAGCA,0.637
UCCAAAC,0.207

# Some of these lines once more (series 3):
Oligonucleotide,fitted relative affinity
TTAGGTATCGGCTATCGGTTAGTGCTA,5.41 z-score
ATAGGTTTCGGTTCCGGTTAGTGCTAG,14.3 z-score
TTAGGTATCGTTCTCGGTTAGTGCTAG,6.26 z-score
GACGGTTTCGGAGTGGGGACGTGCTAG,5.7 z-score
AGTGTCATGTTTCTATGGGCGTGCTAG,1.04 z-score
